{"data": "Measured values gathered from unrelated publications", "note": "Each numbered part is a random draw from the data of one study; scales do not carry over between parts. Positions count from the first letter of the parent shown."}
{"data": "Sample 1", "target": "RNA binding protein fox-1 homolog 2, RRM domain, GST-SBP tag (RBFOX2, Homo sapiens, UniProt O43251-10, residues 100-194)", "technique": "RNA Bind-n-Seq", "form": "RNA", "matrix": "in vitro", "concentration": "365 nM", "setting": "natural RNA segment, single round, ends assumed", "baseline": "no-protein control", "direction": "higher = stronger binding", "all sequences stand within": "GGGAGUUCUACAGUCCGACGAUC … UGGAAUUCUCGGGUGCCAA", "Construct (chain)": "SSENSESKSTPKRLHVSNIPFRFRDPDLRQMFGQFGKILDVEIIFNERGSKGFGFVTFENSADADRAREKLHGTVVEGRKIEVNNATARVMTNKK"}
{"Sequence": "UGCAAAAUUUUCUACUGGCCAAGUUCAAGUGAGUAAGCCGCGUCCCCCAACUACAGCUGGAGACGGGGCCAGCUCGGCGGCCUGCUGGUCCUCUGCUUGCUGGAACAUUC", "RBNS enrichment (R)": 0.271}
{"Sequence": "UCUGUUUCUAGACCUCAGUUAUUUUCCCAUUUUUGGUUGUUUUGAAGCAGUAACAUUUUUCUCAGUGCACAUGCAAUUUGGGUUUUAGAGAAGAUGGCCACCAGCUGGCU", "RBNS enrichment (R)": 0.449}
{"Sequence": "UCUAAAUUCAGUAGCAGUUUCAUCGACAGUGCCAUUGAACUAUGGGAACAUUUAUGAUUUUCUUUCAACAUUAAAACUGAAGUUAGUUUUGCCAUUUUUGAAAGUAUUAG", "RBNS enrichment (R)": 0.333}
{"Sequence": "UGCCACCAUGGCCAGUAUGUGCAGAGCAGUACUGCAGUGUGUUCAGGGUUAGCGCCCAUGAAAGGGGACCGAGUGUAUGACAAUCUGCGUUGAUCAUGGACUACUAAAAU", "RBNS enrichment (R)": 0.417}
{"Sequence": "AUAUUAAGGUGUGGCUUUAGGAGCAGUGGGAGGGUACCAGCAGAAAGGUUAGUAUCAUCAGAUAGCAUCUUAUACGAGUAAUAUGCCUGCUAUUUGAAGUGUAAUUGAGA", "RBNS enrichment (R)": 0.646}
{"Sequence": "GGAUACAAGAUUAAUCUUUAGAAAUUUUGAAUUUUCUACUUGAGAUAUAAAAAUUCAGUAAAAUGUAAUCUGUUUUUAAUCUAUACUGAGAUAGAUAGAUGGCAGAUAGA", "RBNS enrichment (R)": 0.791}
{"Sequence": "GCUUUUUAAUUUACAAUGAAACAAAGAAACAAAUUCCUUUGACCAAAUUGCUUGUCUAUAGUUGUCUGCAGUACUGUAUGAUUUUACCCAUGUGCAAUUUGUAAAAUGAA", "RBNS enrichment (R)": 1.16}
{"Sequence": "ACAGAUUAUCUUUGGGCCUUUUCAUUAGAAAGCUGUUUGUUUGUCCCCCUGUUGGUACAUUUGGUUACCUCAUUUUGCCGUUUCAGAUUGUGAAAGCUCACAGGGGUGUU", "RBNS enrichment (R)": 0.331}
{"data": "Sample 2", "target": "CCND3, cyclin fold, Cln2 fusion (human)", "technique": "yeast growth competition, sequencing", "matrix": "yeast", "setting": "weak parent motif", "baseline": "not given", "direction": "higher = stronger binding", "parent": "RBL1 docking peptide (human); GSAKRRLFGEDPP; partner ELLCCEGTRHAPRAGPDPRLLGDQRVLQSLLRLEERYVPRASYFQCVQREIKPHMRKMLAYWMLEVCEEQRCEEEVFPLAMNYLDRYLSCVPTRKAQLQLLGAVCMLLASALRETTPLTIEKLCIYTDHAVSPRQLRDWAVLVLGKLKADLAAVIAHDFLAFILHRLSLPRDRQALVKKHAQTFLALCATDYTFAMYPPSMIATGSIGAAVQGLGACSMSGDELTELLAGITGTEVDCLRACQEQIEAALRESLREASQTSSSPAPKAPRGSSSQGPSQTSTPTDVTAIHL"}
{"Variant": "R6F", "normalised enrichment score": 0.135}
{"Variant": "S2N", "normalised enrichment score": 0.0884}
{"Variant": "K4E", "normalised enrichment score": 0.0677}
{"Variant": "K4W", "normalised enrichment score": 0.154}
{"Variant": "L7V", "normalised enrichment score": 0.184}
{"Variant": "P13D", "normalised enrichment score": 0.173}
{"Variant": "S2P", "normalised enrichment score": 0.158}
{"Variant": "D11N", "normalised enrichment score": 0.198}
{"Variant": "G9Y", "normalised enrichment score": 0.0762}
{"Variant": "A3K", "normalised enrichment score": 0.25}
{"Variant": "A3D", "normalised enrichment score": 0.0292}
{"Variant": "R5N", "normalised enrichment score": 0.12}
{"Variant": "R6W", "normalised enrichment score": 0.0607}
{"Variant": "R6C", "normalised enrichment score": 0.117}
{"Variant": "E10C", "normalised enrichment score": 0.14}
{"Variant": "P13H", "normalised enrichment score": 0.213}
{"Variant": "F8Y", "normalised enrichment score": 0.0882}
{"Variant": "F8R", "normalised enrichment score": 0.0985}
{"Variant": "D11M", "normalised enrichment score": 0.0878}
{"Variant": "F8W", "normalised enrichment score": 0.0186}
{"Variant": "R5V", "normalised enrichment score": 0.114}
{"Variant": "G1I", "normalised enrichment score": 0.219}
{"Variant": "R5W", "normalised enrichment score": 0.0501}
{"Variant": "E10Y", "normalised enrichment score": 0.0611}
{"Variant": "E10R", "normalised enrichment score": 0.138}
{"data": "Sample 3", "target": "Phosphate system positive regulatory protein PHO4, full length, GST-tagged (PHO4, Saccharomyces cerevisiae, UniProt P07270, residues 1-312)", "technique": "competition protein-binding microarray", "form": "double-stranded DNA, one strand shown", "matrix": "in vitro", "concentration": "2 µM", "setting": "whole 60-bp probe, lowest competitor level", "added": "Cbf1 competitor, 0.05 µM", "direction": "higher = stronger binding", "all sequences stand within": "… GTCTTGATTCGCTTGACGCTGCTG", "Residues (chain)": "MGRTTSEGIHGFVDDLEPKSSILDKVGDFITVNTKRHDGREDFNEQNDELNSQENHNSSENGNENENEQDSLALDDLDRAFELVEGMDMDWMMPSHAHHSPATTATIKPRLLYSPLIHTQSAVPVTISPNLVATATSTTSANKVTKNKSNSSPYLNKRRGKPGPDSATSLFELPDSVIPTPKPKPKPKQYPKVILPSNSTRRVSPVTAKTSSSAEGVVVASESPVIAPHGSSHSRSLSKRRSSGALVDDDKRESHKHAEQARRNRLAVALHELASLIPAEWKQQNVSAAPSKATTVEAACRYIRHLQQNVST"}
{"Sequence": "CTTTCCCGATCTTGTATTGTGGGTGTAGCACATTTG", "fluorescence intensity": "4990 a.u."}
{"Sequence": "ACTCCAAAATACATCCTCGTGGCAACCCAGGCTACG", "fluorescence intensity": "13900 a.u."}
{"Sequence": "TTCCTTTGGATTTTCCGCGTGTGTTTTCTGACCGTT", "fluorescence intensity": "8200 a.u."}
{"Sequence": "TTTGGTGACTTACACCACATGTAATGACGCTATGAC", "fluorescence intensity": "7890 a.u."}
{"Sequence": "GTCAATCGATTGGATCAGGTGAGGAAGTACTCAGCG", "fluorescence intensity": "2980 a.u."}
{"Sequence": "CATACCCAACCTTGGCTTGTGGGTGAAGATATTTGT", "fluorescence intensity": "5290 a.u."}
{"Sequence": "AAATTACTAAGTTGAGCGGTGGGTGACGCCGTATGA", "fluorescence intensity": "3550 a.u."}
{"Sequence": "TTAAGTGGGCTTACCCACGCTTTCGGTGCCTATGGT", "fluorescence intensity": "7410 a.u."}
{"Sequence": "GAAGATTGGGTCTGCGTTGTGACGGAAGTGCCAGAT", "fluorescence intensity": "3540 a.u."}
{"Sequence": "TTGACGGAAAAACGCTGTGTGACGGAGACTAGCCTG", "fluorescence intensity": "3810 a.u."}
{"Sequence": "CTTCGTTCCTTCCGTCACATGATGAGATAGAGGAAT", "fluorescence intensity": "7860 a.u."}
{"Sequence": "ATTCCTGTTCCGGGACAAGTGCTACAACTGACCTTA", "fluorescence intensity": "2830 a.u."}
{"Sequence": "CTTTCCCGATCTTGTTATGTGGGTGTAGCACATTTG", "fluorescence intensity": "5090 a.u."}
{"Sequence": "TGTTAAGTTCAACAACATGTGAAATTCTTAGCTCCG", "fluorescence intensity": "6010 a.u."}
{"Sequence": "TAATCGGAGACGAGTCACGTGCAAAAAGAAATCATA", "fluorescence intensity": "14000 a.u."}
{"Sequence": "CAGCGCGATCAGTTGCACATGGCGCGACTGCAAACC", "fluorescence intensity": "9030 a.u."}
{"Sequence": "GCTTGGAAGTCTCACCACGGGCAAATCTTCTTCTAA", "fluorescence intensity": "5900 a.u."}
{"Sequence": "TTTTACATGAAACTGCGCGTGCCAGAAATGTTAAGA", "fluorescence intensity": "11800 a.u."}
{"Sequence": "TAATTGCGACGGCGTCACCTGGAGAAACGAAAGATG", "fluorescence intensity": "3940 a.u."}
{"data": "Sample 4", "target": "Histone acetyltransferase KAT6A, both winged helices, GST fusion (KAT6A, Homo sapiens, UniProt Q92794, residues 1-181)", "technique": "protein binding microarray", "form": "double-stranded DNA, one strand shown", "matrix": "in vitro", "concentration": "not given", "setting": "8-mer, flanks averaged, mean of 2 arrays, mostly near background", "baseline": "not given", "direction": "higher = stronger binding", "Target sequence (chain)": "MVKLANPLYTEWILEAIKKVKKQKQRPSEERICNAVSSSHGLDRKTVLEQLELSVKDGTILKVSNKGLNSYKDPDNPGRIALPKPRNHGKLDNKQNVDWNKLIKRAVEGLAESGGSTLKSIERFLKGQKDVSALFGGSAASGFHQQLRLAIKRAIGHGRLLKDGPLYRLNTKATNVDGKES"}
{"Sequence": "AATTTAAC", "E-score": -0.0193}
{"Sequence": "GTTTAAGA", "E-score": 0.00986}
{"Sequence": "AGATCCCC", "E-score": -0.0335}
{"Sequence": "AATTTCCC", "E-score": -0.113}
{"Sequence": "CTTTGAGC", "E-score": 0.00059}
{"Sequence": "CGTAGAAC", "E-score": -0.0578}
{"Sequence": "CTGGCTTC", "E-score": -0.0678}
{"Sequence": "AACCCCTA", "E-score": -0.236}
{"Sequence": "GCTACTGA", "E-score": -0.0731}
{"Sequence": "CGCTCTTC", "E-score": 0.144}
{"Sequence": "CTTAATGA", "E-score": -0.13}
{"Sequence": "ACGGTTAG", "E-score": 0.112}
{"Sequence": "GCAGCTGA", "E-score": 0.0312}
{"Sequence": "AATGAGGA", "E-score": -0.186}
{"Sequence": "ACTAACGC", "E-score": 0.103}
{"Sequence": "GCTTAAGA", "E-score": 0.0568}
{"Sequence": "ACTAGATC", "E-score": -0.109}
{"Sequence": "AGGTTGAT", "E-score": -0.136}
{"Sequence": "CCTCATAA", "E-score": -0.124}
{"Sequence": "CGACAGGA", "E-score": 0.0245}
{"Sequence": "ATGTGAAT", "E-score": -0.0166}
{"Sequence": "CCAGAGCA", "E-score": -0.126}
{"Sequence": "AACCCCTG", "E-score": -0.208}
{"Sequence": "AACACACC", "E-score": 0.031}
{"Sequence": "TCTCAGAA", "E-score": -0.183}
{"note": "A few entries again (sample 2):"}
{"Variant": "F8R", "normalised enrichment score": 0.0985}
{"Variant": "S2P", "normalised enrichment score": 0.158}
{"Variant": "S2N", "normalised enrichment score": 0.0884}
{"Variant": "K4E", "normalised enrichment score": 0.0677}
{"Variant": "L7V", "normalised enrichment score": 0.184}
